Measurements from different studies.
Each numbered part is a random draw from the data of one study; scales do not carry over between parts.

Set 1
Target: Histone acetyltransferase KAT6A, winged helix 2, GST fusion (KAT6A, Homo sapiens, UniProt Q92794, residues 85-181)
Method: protein binding microarray
Form: double-stranded DNA, one strand shown
Sample: in vitro
Tested at: not given
Setting: 8-mer, flanks averaged, mean of 2 arrays, mostly near background
Relative to: not given
Direction: higher = stronger binding
Target sequence (chain): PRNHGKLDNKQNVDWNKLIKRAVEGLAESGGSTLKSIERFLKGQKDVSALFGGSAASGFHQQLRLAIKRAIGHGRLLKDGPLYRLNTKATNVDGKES
`CAGCTCGC` has an E-score of 0.0272.
The E-score of `ACGCACCT` is reported as 0.00311.
`AGTCTCAA` has an E-score of -0.175.
With `CGGTAAGA` the E-score was 0.0885.
For `GGGATAAC`, the E-score was -0.0647.

Set 2
Target: RNA binding protein fox-1 homolog 2, RRM domain, GST-SBP tag (RBFOX2, Homo sapiens, UniProt O43251-10, residues 100-194)
Method: RNA Bind-n-Seq
Form: RNA
Sample: in vitro
Tested at: 365 nM
Setting: natural RNA segment, single round, ends assumed
Relative to: no-protein control
Direction: higher = stronger binding
For `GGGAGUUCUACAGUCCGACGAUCACUUGUUGUGGCUCUUAUUUCUGAAUUCAAAGCUUGUGAAAAAAUAAAGAAAAUGAACUGCCCACUGCCUGACUAGGGCACUUUCAUUUCAGUGGUGGUGUCUGGAUUGGUGGAAUUCUCGGGUGCCAA`, “RBNS enrichment (R)” read 12.1.
`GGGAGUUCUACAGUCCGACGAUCUGAUUAGGUGGCCUUUUCUGUGCAGUUACUAAUCACAGGAAUUUGGUAGUAGUGAAAAUCAGGUUUGCUGUGUUCUGCUUUGAGGCCUGGAAUCUUUUAUCAUUAAACACUGGAAUUCUCGGGUGCCAA` — result for “RBNS enrichment (R)”: 0.564.
`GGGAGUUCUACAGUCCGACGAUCUGUGAUUUUAGUUUUCAUUUGUGUUUAUGUCUGUGCUGCAGACGGAUGGGUGGGGUGCGCUUCUUUAUACCAGGAGCACGUGGCUCUUUCUGACCUUUGGCCUGUUCUAGUGGAAUUCUCGGGUGCCAA` — result for “RBNS enrichment (R)”: 0.474.
For `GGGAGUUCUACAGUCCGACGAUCAAGCUUAACCAUACAGUAUUUCUAAGCAAAAUAAUGUACUCCAUUCUUUUGUCCAUGCUCUCAUUGCUGAUUUGUUCUUGCAGGACUUAGAGCACUUUGUUAAUGUUCUUUGGAAUUCUCGGGUGCCAA`, “RBNS enrichment (R)” read 0.659.
Under “RBNS enrichment (R)”, `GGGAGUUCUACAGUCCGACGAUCUCCAUUUUCUAGGCUUAAAAGAUAUAUUUUUGAUAUAUUUAAUUAUAUUCUCUACACUCCAGCAUUAAUAUGUCUGUUUAAAAAUUACUAAUUCUCAAAUGGCUCAAGAAUGGAAUUCUCGGGUGCCAA` is recorded as 1.19.
`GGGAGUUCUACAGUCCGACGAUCCUUAAUGUCCCUAUCUGUGGUGUGUGUGCACUUGCUGUGACCUUCCCAGUAGUCCCUCCAUGACAGAAAACACUCCCAUGAGUCUCGAGGGAAAGCCAAGAAUAAAUGUCUGGAAUUCUCGGGUGCCAA` — result for “RBNS enrichment (R)”: 0.677.

Set 3
Target: Ras GTPase-activating protein-binding protein 1, full length (G3BP1, Homo sapiens, UniProt Q13283)
Sequence of UniProt Q13283 (whole entry, looked up): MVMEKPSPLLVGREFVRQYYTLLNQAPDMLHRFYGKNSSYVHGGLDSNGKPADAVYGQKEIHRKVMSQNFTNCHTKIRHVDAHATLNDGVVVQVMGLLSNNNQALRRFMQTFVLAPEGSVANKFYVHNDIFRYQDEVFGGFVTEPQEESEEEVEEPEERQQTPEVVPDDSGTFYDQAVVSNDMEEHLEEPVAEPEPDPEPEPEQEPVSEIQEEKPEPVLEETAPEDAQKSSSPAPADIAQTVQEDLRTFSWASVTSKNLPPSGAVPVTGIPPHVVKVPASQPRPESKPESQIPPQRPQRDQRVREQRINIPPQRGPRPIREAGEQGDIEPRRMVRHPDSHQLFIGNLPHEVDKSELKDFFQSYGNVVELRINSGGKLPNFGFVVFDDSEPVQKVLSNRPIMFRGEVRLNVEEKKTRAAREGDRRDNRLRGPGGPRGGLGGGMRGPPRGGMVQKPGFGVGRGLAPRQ
Method: RNA Bind-n-Seq
Form: RNA
Sample: in vitro
Tested at: 200 nM
Setting: whole 134-nt RNA, ends assumed
Together with: 150 mM LiCl
Relative to: input library
Direction: higher = stronger binding
All molecules: 7-deaza-guanosine replaces G
`GGGAGUUCUACAGUCCGACGAUCUCAAGUCCUGUGCUACACAUCGUAUGUACCGAAUCGGGGCCGGGCCGGGCCGGGAAAGUAUUAUGUUACGCCGUUCGGAUCUGCACUUCCUGGAAUUCUCGGGUGUCAAGG` gave a log2 enrichment of 0.671.
The log2 enrichment of `GGGAGUUCUACAGUCCGACGAUCUGUGCUACACAUCGUAUGUACCGAAUCGGGGUUUUUUUGGGGUUUUUUUGGGGUUUUUUUGGAAAGUAUUAUGUUACGCCGUUCGGAUCUUGGAAUUCUCGGGUGUCAAGG` is reported as 1.91.
`GGGAGUUCUACAGUCCGACGAUCCCUCAAGUCCUGUGCUACACAUCGUAUGUACCGAAUCGGAGGGGAGGGAGGGGAAAGUAUUAUGUUACGCCGUUCGGAUCUGCACUUCCAUGGAAUUCUCGGGUGUCAAGG` has a log2 enrichment of 0.0839.
The log2 enrichment of `GGGAGUUCUACAGUCCGACGAUCUCCUGUGCUACACAUCGUAUGUACCGAAUCGGGCCCCCCGGGGCCCCCCGGCCCCCCGGGAAAGUAUUAUGUUACGCCGUUCGGAUCUGCUGGAAUUCUCGGGUGUCAAGG` is reported as -2.07.

Single results of other studies
`PhoQ, residues 284 288 289 292 302 303 QWGLFV` gave a fold induction of 0.617 (PhoP, residues 12 14 15 18 19 TPWLV (Escherichia coli, UniProt P23836); Sort-seq, measured: YFP reporter; E. coli; PhoQ-PhoP variant library, together with: 10 µM Mg2+; relative to: high Mg2+ state, higher = stronger signaling).

Excerpt of the above (set 2):
For `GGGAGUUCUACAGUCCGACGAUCACUUGUUGUGGCUCUUAUUUCUGAAUUCAAAGCUUGUGAAAAAAUAAAGAAAAUGAACUGCCCACUGCCUGACUAGGGCACUUUCAUUUCAGUGGUGGUGUCUGGAUUGGUGGAAUUCUCGGGUGCCAA`, “RBNS enrichment (R)” read 12.1.
`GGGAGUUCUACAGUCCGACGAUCUGAUUAGGUGGCCUUUUCUGUGCAGUUACUAAUCACAGGAAUUUGGUAGUAGUGAAAAUCAGGUUUGCUGUGUUCUGCUUUGAGGCCUGGAAUCUUUUAUCAUUAAACACUGGAAUUCUCGGGUGCCAA` — result for “RBNS enrichment (R)”: 0.564.
